Results gathered from unrelated publications.
Each numbered part is a random draw from the data of one study; scales do not carry over between parts. Changes are numbered by the printed parent chain.

Study 1
Target: CCNE2, cyclin fold, Cln2 fusion (human)
Method: yeast growth competition, sequencing
Matrix: yeast
Notes: strong parent motif
Baseline: not given
Direction: higher = stronger binding
Starting sequence: CDC25A docking peptide (human); PPHRRRLLFACSP; partner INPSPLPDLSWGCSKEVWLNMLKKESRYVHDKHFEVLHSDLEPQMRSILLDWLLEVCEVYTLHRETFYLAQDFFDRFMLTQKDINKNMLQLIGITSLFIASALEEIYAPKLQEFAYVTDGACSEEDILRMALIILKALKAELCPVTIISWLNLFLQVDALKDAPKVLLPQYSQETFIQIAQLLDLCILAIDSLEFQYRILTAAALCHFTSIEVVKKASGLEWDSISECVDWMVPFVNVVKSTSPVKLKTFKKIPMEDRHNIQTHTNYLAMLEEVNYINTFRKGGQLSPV
| Variant | normalised enrichment score |
| --- | --- |
| PPHRRRLLFALSP [C11L] | 1.77 |
| PPHRRDLLFACSP [R6D] | 0.411 |
| PPHRRRMLFACSP [L7M] | 0.955 |
| PPHGRRLLFACSP [R4G] | 1.1 |
| PPHRRRLLRACSP [F9R] | 1.54 |
| PPHRRRLLFTCSP [A10T] | 3.3 |
| PPHRRYLLFACSP [R6Y] | 0.631 |
| PNHRRRLLFACSP [P2N] | 1.93 |
| PPHRVRLLFACSP [R5V] | 1.49 |
| PPHRRSLLFACSP [R6S] | 0.976 |
| PPHRRRLLFACSI [P13I] | 1.83 |
| PPHRRRLLFASSP [C11S] | 2.41 |
| PPHRRRLLFKCSP [A10K] | 1.67 |
| PPHRRRLLSACSP [F9S] | 1.09 |
| PPARRRLLFACSP [H3A] | 1.51 |
| PPHRRRLLFACWP [S12W] | 1.87 |
| PPHRSRLLFACSP [R5S] | 0.766 |
| PPHRRRLLFAQSP [C11Q] | 2.34 |
| PPSRRRLLFACSP [H3S] | 1.49 |

Study 2
Target: UBE2Q2 UBC core domain (UniProt Q8WVN8)
Sequence of UniProt Q8WVN8 (whole entry, looked up): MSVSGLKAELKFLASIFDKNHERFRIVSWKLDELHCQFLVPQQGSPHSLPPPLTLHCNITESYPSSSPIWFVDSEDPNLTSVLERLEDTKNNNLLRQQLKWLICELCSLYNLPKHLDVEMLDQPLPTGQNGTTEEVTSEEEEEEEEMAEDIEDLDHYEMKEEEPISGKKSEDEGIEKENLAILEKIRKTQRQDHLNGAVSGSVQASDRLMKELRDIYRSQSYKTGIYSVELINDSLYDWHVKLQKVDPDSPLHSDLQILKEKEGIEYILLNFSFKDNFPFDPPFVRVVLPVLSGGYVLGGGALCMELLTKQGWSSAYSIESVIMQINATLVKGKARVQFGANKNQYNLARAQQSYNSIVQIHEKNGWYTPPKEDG
Method: yeast two-hybrid
Matrix: yeast
Notes: mostly zero background
Baseline: not given
Direction: higher = stronger interaction
B1: RNF25 RING domain (UniProt Q96BH1); chain LTDNNIPHGQCVICLYGFQEKEAFTKTPCYHYFHCHCLARYIQHMEQELKAQGQEQEQERQHATTKQKAVGVQCPVCREPLVYDLASL
B2: RNF170 RING domain (UniProt Q96K19); chain TRQQFYTDMYCPICLHQASFPVETNCGHLFCGACIIAYWRYGSWLGAISCPICRQTVTLLLTVF
B3: CUL9 RING domain (UniProt Q8IWT3); chain AQAVPVRPDHCPVCVSPLGCDDDLPSLCCMHYCCKSCWNEYLTTRIEQNLVLNCTCPIADCPAQPTGAFIR
B4: MID1 RING domain (UniProt O15344); chain METLESELTCPICLELFEDPLLLPCAHSLCFNCAHRILVSHCATNESVESITAFQCPTCRHVITLSQRGL
B5: ZNF598 RING domain (UniProt Q86UK7); chain AAAPERGGGSCVLCCGDLEATALGRCDHPVCYRCSTKMRVLCEQRYCAVCREELRQVVFGK
B6: PHF21A RING domain (UniProt Q96BD5); chain SPTSTDGDIHEDFCSVCRKSGQLLMCDTCSRVYHLDCLDPPLKTIPKGMWICPRCQDQMLKKEEAIPW
| Sequence | lacZ reporter activity |
| --- | --- |
| B1 (RNF25 RING domain) | 0 |
| QLRRLQEERTCKVCMDKEVSIVFIPCGHLVVCKDCAPSLRKCPICRSTIKGTVRTF (BIRC3 RING domain (UniProt Q13489)) | 0 |
| VTLSLTLPITCHICLGKVRQPVICINNHVFCSICIDLWLKNNSQCPACRVPITPENPCK (OBI1 RING domain (UniProt Q5W0B1)) | 0 |
| B2 (RNF170 RING domain) | 0 |
| B3 (CUL9 RING domain) | 0 |
| B4 (MID1 RING domain) | 0 |
| B5 (ZNF598 RING domain) | 0 |
| RLTMMWEEVTCPICLDPFVEPVSIECGHSFCQECISQVGKGGGSVCPVCRQRFLLKNLRP (TRIM21 RING domain (UniProt P19474)) | 0 |
| B6 (PHF21A RING domain) | 0 |
| EDEVSDNSAECVVCLSDVRDTLILPCRHLCLCNTCADTLRYQANNCPICRLPFRALLQIR (RNF157 RING domain (UniProt Q96PX1)) | 0 |
| FPEHFVKSISCQICEHILADPVETNCKHVFCRVCILRCLKVMGSYCPSCRYPCFPTDLES (RAG1 RING domain (UniProt P15918)) | 0 |
| PEELQAMDNVCIICREEMVTGAKRLPCNHIFHTSCLRSWFQRQQTCPTCRMDVLRASLPA (SYVN1 RING domain (UniProt Q86TM6)) | 0 |
| YWAMDSTFELCKICAESNKDVKIEPCGHLLCSCCLAAWQHSDSQTCPFCRCEIKGWEAVS (CBLC RING domain (UniProt Q9ULV8)) | 0 |

Study 3
Target: ABI1, truncated, D143A, DHFR fusion (Arabidopsis thaliana)
Method: DHFR PCA, deep sequencing
Matrix: yeast
Notes: methotrexate growth selection, single substitutions
Added: (+)-ABA 4.8 µM
Baseline: wild-type fitted maximum
Direction: higher = stronger binding
Starting sequence: PYL1, truncated, DHFR fusion (Arabidopsis thaliana); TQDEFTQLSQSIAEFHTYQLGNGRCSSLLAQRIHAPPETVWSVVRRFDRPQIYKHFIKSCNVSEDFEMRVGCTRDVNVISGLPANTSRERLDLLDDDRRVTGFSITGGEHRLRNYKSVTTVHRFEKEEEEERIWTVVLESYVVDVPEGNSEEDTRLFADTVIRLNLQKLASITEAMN
| Variant | relative binding score |
| --- | --- |
| G108L | -2.66% |
| H55T | 81.4% |
| E151P | 81.3% |
| H110V | 3.83% |
| D75I | 81.9% |
| R88L | 60.4% |
| N77W | 63.2% |
| R99P | -7.11% |
| T101V | 66.1% |
| M68K | 7.07% |
| I57S | 4.56% |
| G102C | -1.82% |
| D144G | 4.24% |
| S59M | 24.3% |
| I172Q | 13.2% |
| D97L | 48.6% |
| F5A | 60.5% |
| N77P | 4.3% |
| R24E | 62.6% |
| D92E | 44.2% |

Study 4
Target: RNA binding protein fox-1 homolog 2, RRM domain, GST-SBP tag (RBFOX2, Homo sapiens, UniProt O43251-10, residues 100-194)
Method: RNA Bind-n-Seq
Molecule type: RNA
Matrix: in vitro
Concentration: 365 nM
Notes: natural RNA segment, single round, ends assumed
Baseline: no-protein control
Direction: higher = stronger binding
Target sequence (chain): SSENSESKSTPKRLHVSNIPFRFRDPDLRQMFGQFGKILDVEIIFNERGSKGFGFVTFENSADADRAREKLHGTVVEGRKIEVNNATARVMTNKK
| Strand | RBNS enrichment (R) |
| --- | --- |
| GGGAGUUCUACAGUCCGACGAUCCUGCAUGGCUCUCUUGUAGCCAAAGGUGGGGAGAUUCUGCGUGGGAGAACUUGGUGUCUCACCCUGGGUACCCAUUCCUGGUGUAUGGAAGCACCUCCUUCACGGUCAGGUGGAAUUCUCGGGUGCCAA | 0.617 |
| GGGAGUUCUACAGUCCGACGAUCUGAGCCCAGUUAGUACCCCGCUGGCUCACUGCACGAGAGAGUCCUGCCCCGAGCCCUAGGUGGGGCCAGGAGGUGCCUUGGAGAAGCCAGCCAGAGCAGAGAGGGCUGCUUGGAAUUCUCGGGUGCCAA | 2.4 |
| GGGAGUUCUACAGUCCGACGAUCUCAAUUUGUAAAGAAAUUUUUAUUAAACACUGUAGAAAAAGUGAAGCUGAGAACUCUUUUGUGCAUUUAUAUUUCCUACUGAAUUCUGGUAGCCCACUUUUAACAUUGUAUGGAAUUCUCGGGUGCCAA | 2.84 |
| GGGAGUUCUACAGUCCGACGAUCUUUGAGCAGGUAUCAAAUGAUUUAGGAUCCUUAAAAUUACAUUCUAAUAAUUAAGUUAUGUGGAAAAAGUAAGGCUGGGGAAGUCGUGAUUAAUAGUUUUCAAAGGGCCAUGGAAUUCUCGGGUGCCAA | 0.357 |
| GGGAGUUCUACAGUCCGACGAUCUGGACCAAAGGCAACCCCUGCAGUGUCUGUGAAAUGAUUUGAAGACCGUUCAGGCCACGCAAUAUGAGAAUGCAGUUUUUGUAGGAUUACAAAAAAAAAAAAAAGCCAUUUGGAAUUCUCGGGUGCCAA | 0.482 |
| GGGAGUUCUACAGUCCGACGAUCUCCCUUCGAAGGCCCAGAUAAGACAGGGAACACUUGUGAGCACACAGAGCAGCAUCUGAUGCCCUGUGGUGUUUGGCAUGUGCCCCCUGUCUACUGACCAAUCAGUGUGGUGGAAUUCUCGGGUGCCAA | 0.274 |
| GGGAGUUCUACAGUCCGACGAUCGAUAUGCCAAUAUUUGCUUUAAAUAUCAUAUCACUGUAUCUUCUCAGUCAUUUCUGAAUCUUUCCACAUUAUAUUAUAAAAUAUGGAAAUGUCAGUUUAUCUCCCCUCCUUGGAAUUCUCGGGUGCCAA | 0.257 |
| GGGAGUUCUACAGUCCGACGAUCUGGCUCAGGCACCCUGGUUUUAAUUCCUUGAGGAUCUGGCAAUUGGCUUACGCAAAAGGUCACCAUUUGAGGUCCUGCCUUACUAAUUAUGUGCUGCCCAACAACUAAAUUGGAAUUCUCGGGUGCCAA | 0.394 |
| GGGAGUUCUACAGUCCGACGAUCUGGGGUGUGCUGGGAGGAUUACCAAGGCCCCCUUUUUUUGUGCCCUCUUGAAUCCAAGUGUCUGUAGCUUUGGAGACUGAGGGUCUGUGAAUAAAGGCGGUGGCACUGGAUGGAAUUCUCGGGUGCCAA | 0.725 |
| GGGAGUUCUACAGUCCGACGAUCGUACUUUACCAGAGAGGUGUACAUACUUCUUUUCAGUGUUGUGACCAAGUGCUGCGACUCAGCCAACAACUUACCACAUUCGGGGCUGGGAGCUGUUCUAAGAAAGGGACUGGAAUUCUCGGGUGCCAA | 0.319 |
| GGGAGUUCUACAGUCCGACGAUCGUGGCAGAUGUUUGAGGAAAGGAAUUAUGCCAGGAAGGUGGGACCGGGUUAUGGUCGGGUUUCUAUUGGGAAUGCUCUUUGUGCUUUUGGGCAUCUGAAUGGAAGCUUUAUGGAAUUCUCGGGUGCCAA | 2.75 |
| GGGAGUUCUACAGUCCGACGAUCGGAAGAUGUGGAAAAGAACCGCAAGGUGGUGGCAGAGAACCUGGAGAAGGUCCAGGCUGAGGCGGAGAGAUUGGACCAGGAGGAAGCUCAGUGGGUACCAGCGGGAGUAUUGGAAUUCUCGGGUGCCAA | 0.843 |

Excerpt of the above (study 2):
| Sequence | lacZ reporter activity |
| --- | --- |
| RLTMMWEEVTCPICLDPFVEPVSIECGHSFCQECISQVGKGGGSVCPVCRQRFLLKNLRP (TRIM21 RING domain (UniProt P19474)) | 0 |
| VTLSLTLPITCHICLGKVRQPVICINNHVFCSICIDLWLKNNSQCPACRVPITPENPCK (OBI1 RING domain (UniProt Q5W0B1)) | 0 |
| B1 (RNF25 RING domain) | 0 |
| YWAMDSTFELCKICAESNKDVKIEPCGHLLCSCCLAAWQHSDSQTCPFCRCEIKGWEAVS (CBLC RING domain (UniProt Q9ULV8)) | 0 |
| B3 (CUL9 RING domain) | 0 |
| B4 (MID1 RING domain) | 0 |
| B6 (PHF21A RING domain) | 0 |
| FPEHFVKSISCQICEHILADPVETNCKHVFCRVCILRCLKVMGSYCPSCRYPCFPTDLES (RAG1 RING domain (UniProt P15918)) | 0 |
